# Measured values pooled from the literature.
# Numbered parts are unrelated; each lists some results of a single study.

# Block 1 — technique: RNA Bind-n-Seq; form: RNA; sample: in vitro; concentration: 365 nM; baseline: no-protein control; direction: higher = stronger binding
# Target: RNA binding protein fox-1 homolog 2, RRM domain, GST-SBP tag (RBFOX2, Homo sapiens, UniProt O43251-10, residues 100-194)
# Setting: natural RNA segment, single round, ends assumed
# All sequences stand within: GGGAGUUCUACAGUCCGACGAUC … UGGAAUUCUCGGGUGCCAA
# Residues (chain): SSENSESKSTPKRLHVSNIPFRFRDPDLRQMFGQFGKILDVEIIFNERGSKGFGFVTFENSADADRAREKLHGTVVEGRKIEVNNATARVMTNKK
Strand,RBNS enrichment (R)
UAAUAUUCCUUCUAGUCAGUGGAAAUUUGUAUUCCCAUACAAACUCAGAAUGCUAUAUUUUUAACAGCACUCCAGCAUUUUUCUUCAUGUAUCACCUUCACUGACUCCAU,0.941
UGAAGCAUCUUUAAAUACGAUAGAAAAUAAGCUACUCAAGAAGCUGGUCUGUGUCCUUUUGCCUUAGUCCAUGCAUACUCAUUAAGGAAAAAAAGUACCAUUGUGCUAAA,1.15
UAUUGUCCUUAACUUUAAGAUGUCAUUUCCUGAGACAGACUGUAUGAAGCUAUUGUCAGCUUCUCUAUUUCAAAUGCAAUCAGCAUAUAUCUAUAUUGAUAUCAGAAAAU,0.342
GCCUUGGCAGGUGCAGUUUGCAGUUCACUGCAGCUCCCUCCCCCUUUUGUUUCCUCAAUUUAAGCAGAGGUUGUGCCAGCUGUAGAAACUUCAGUCCCUCAGGCUGGCAG,0.383
GGAAAGUGUUCCAGACGGAGACUCUGAGUUAAUAGAGGAGUAGAAGCUGGUGUUAAAGUUCCCACGACGCACAUGGCUUUGCCAGAAACUCUGUUUAAUGAUCGGCCUUU,0.266
GAUGUCCAGAUGUUGUAAAAAAACAAAAACAAAAAACCCAACAGCUGCAGUUCAAUACAACUGCUCUUUUCACACGACUCCCUAAACUCCUUGUAACCUUCUGUAACUAU,0.57
GAGUUUAAAACAACAACCCCAACAACAGAAGCCUUGGCAAAGAGGAAUAAGUGAUCAGCAAGUGAACACACUCUAUGUCAACUCUCCUUUUAUCCAGCUGAGAUUUAUGG,0.619
AAUAGAGCAUUGGGAAAACUCUGAAAGAGACUGACAUUUUUCUCAACAGGAAUCCAUACUUAACAGUUCUGGCUUUCAUUAAAUUUUGCUCUUUGGUACCUGGGCCUUUU,0.342

# Block 2 — technique: protein-binding microarray; form: double-stranded DNA, one strand shown; sample: in vitro; concentration: 250 nM; setting: 60-bp whole probe; with: salmon DNA 0.4 mg/ml; baseline: random background probes; direction: higher = stronger binding; all sequences stand within: GCCTAGCAC … GTCTTGATTCGCTTGACGCTGCTG
# Target: Interferon regulatory factor 5, full length, phosphomimetic (IRF5, Homo sapiens, UniProt Q13568-2, residues 1-514, K96S/S451D/S453D/S456D/S462D)
Strand,log fluorescence [z-score]
TTAGGTCTCGGACTGGGTTAGTGCTAG,-0.171
TTAGGTCTCGGCTTCGGTTAGTGCTAG,0.345
TTAGGACTGGGGTATTGGTTAGTGCTA,0.0287
GACGGACTGGGTCTCGGGAAGTGCTAG,-1.08
TTAGATCTCAGTCTCGCTTAGTGCTAG,0.295
TTAGGTATCGAGTATCGGTTAGTGCTA,7.76
CTGCTCCTCTTTTTTTGGTAGTGCTAG,0.429
TTAGGTTCCCTTTTGCTTTAGTGCTAG,0.728
GACGATATCGGGGCTGGAGACGTGCTA,0.448
TTAGGTTTCGCCACTGGGTTAGTGCTA,3.98
GACGCTATCAGTTTCGAGACGTGCTAG,6.51

# Block 3 — technique: RNA Bind-n-Seq; form: RNA; sample: in vitro; concentration: 200 nM; setting: whole 134-nt RNA, ends assumed; with: 150 mM LiCl; baseline: input library; direction: higher = stronger binding; library: 7-deaza-guanosine replaces G
# Target: Fragile X messenger ribonucleoprotein 1, C-terminal low-complexity region (Fmr1, Mus musculus, UniProt P35922)
# All sequences stand within: GGGAGUUCUACAGUCCGACGAUC … UGGAAUUCUCGGGUGUCAAGG
Strand,log2 enrichment
UGGCCCUGGUGGCAUGCGGGGAGGAAGAGGUGGACUCAUGGAUCGUGGUGGUCCCGGUGGAAUGUUCAGAGGUGGCCGUGGUGGAGACAG,0.672
UCCUGUGCUACACAUCGUAUGUACCGAAUCGGGCCCCCCGGCCCCCCGGCCCCCCGGGGAAAGUAUUAUGUUACGCCGUUCGGAUCUGCA,1.42
AGUCCUGUGCUACACAUCGUAUGUACCGAAUCGGGAAAAAGGGAAAGGGUUUUUGGGAAAGUAUUAUGUUACGCCGUUCGGAUCUGCACU,-2.17
CUCAAGUCCUGUGCUACACAUCGUAUGUACCGAAUCGGAGGUUUGGAAAAAGGAAAGUAUUAUGUUACGCCGUUCGGAUCUGCACUUCCA,-0.768
UCAAGUCCUGUGCUACACAUCGUAUGUACCGAAUCGGAAAAAGGAGGUUUUUGGAAAGUAUUAUGUUACGCCGUUCGGAUCUGCACUUCC,-0.853
UCCUCAAGUCCUGUGCUACACAUCGUAUGUACCGAAUCGGGGUGGGUGGUGGAAAGUAUUAUGUUACGCCGUUCGGAUCUGCACUUCCAG,-0.193
UGCCAAAGUAUGGCAAGAAAUUGCUCCUGGAAAUACUGAUGCCACCCCAGUAACUCAUGGAACUGAAAGCUCUUGGCAUGAAAUAGCAGC,1.55
UCCUGUGCUACACAUCGUAUGUACCGAAUCGGCCCCCCCGGCCCCCCCGGGCCCCCCCGGAAAGUAUUAUGUUACGCCGUUCGGAUCUGC,1.41

# Block 4 — technique: protein binding microarray; form: double-stranded DNA, one strand shown; sample: in vitro; concentration: not given; baseline: not given; direction: higher = stronger binding
# Target: Histone acetyltransferase KAT6A, both winged helices, GST fusion (KAT6A, Homo sapiens, UniProt Q92794, residues 1-181)
# Setting: 8-mer, flanks averaged, mean of 2 arrays, mostly near background
# Target sequence (chain): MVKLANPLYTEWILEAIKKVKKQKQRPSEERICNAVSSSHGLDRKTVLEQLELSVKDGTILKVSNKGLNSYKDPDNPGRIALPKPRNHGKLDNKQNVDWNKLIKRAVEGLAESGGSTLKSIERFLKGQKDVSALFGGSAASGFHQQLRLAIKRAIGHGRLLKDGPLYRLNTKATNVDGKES
Strand,E-score
ACAGGTTG,-0.165
CCACGAGG,-0.0913
AAGATGCC,-0.0737
CAGTGTAC,0.00404
GGTAAGAA,-0.0876
ACTTAGCA,-0.219
ATTCTATG,-0.0764
CGCGCGCG,0.435
CATTACCC,0.0397
ACATAGTG,-0.0816
TCGGGTAA,0.0902
GGGCGCGA,0.205
GGAGTACC,-0.0121
GGTAATCA,0.0546
CGTGCGGA,0.179
GAGAGAGA,-0.137
AAGATCGA,0.0386
AGTCACAC,-0.13
GCGTTCGA,0.164
CTCCTAAC,-0.195
AAAATAAG,-0.211
ATCAGCCG,0.207
GTGCGCCA,0.168
AATATGCA,-0.0321
CTGGAAAG,-0.259
